Experimental data from different studies.
Numbers after ± are the reported error.

CN(C(=O)c1ccn2ncc(-c3ccc(C(N)=O)cc3)c2c1)c1ccc(C#N)cn1
EC50 (Cryptosporidium parvum; cytopathic effect; HCT-8): 0.107 ± 0.039 µM

CC[C@@H]1NC(=O)[C@H]([C@H](O)[C@H](C)Cc2nc3ccc(C(=O)c4ccccc4)cc3[nH]2)N(C)C(=O)[C@H](C(C)C)N(C)C(=O)[C@H](CC(C)C)N(C)C(=O)[C@H](CC(C)C)N(C)C(=O)[C@@H](C)NC(=O)[C@H](C)NC(=O)[C@H](CC(C)C)N(C)C(=O)[C@H](C(C)C)NC(=O)[C@H](CC(C)C)N(C)C(=O)CN(C)C1=O
EC50 (Human coronavirus NL63; viral replication, inhibitor, qPCR; Caco-2; 48 h): 8.1 µM

Nc1ncnc2c1c(Br)cn2[C@@H]1O[C@H](CO)C[C@H]1O
EC50 (Trypanosoma congolense; parasite growth, resazurin; 6C3 diminazene-resistant; 48 h plus 24 h resazurin): 0.0005 ± 0.0001 µM

Cc1cn(C2CC(N(C)C)C(CO)O2)c(=O)[nH]c1=O (stereo not drawn)
EC50 (Sindbis virus; viral replication; Vero): > 0.37 µM

Nc1ncnc2c1c(I)cn2[C@@H]1O[C@H](CO)C[C@H]1O
EC50 (Trypanosoma congolense; parasite growth, resazurin; 6C3 diminazene-resistant; 48 h plus 24 h resazurin): 0.003 ± 0.0002 µM

C/C=C/c1ccc(OC(C)=O)c(OC)c1
EC50 (Spodoptera frugiperda larvae; antifeedant activity, no-choice; Zea mays leaves): 182 µg/mL

CCOP(=O)(CC=CC[C@@H](C)[C@@H](O)[C@H]1C(=O)N[C@@H](CC)C(=O)N(C)CC(=O)N(C)[C@@H](CC(C)C)C(=O)N[C@@H](C(C)C)C(=O)N(C)[C@@H](CC(C)C)C(=O)N[C@@H](C)C(=O)N[C@H](C)C(=O)N(C)[C@@H](CC(C)C)C(=O)N(C)[C@@H](CC(C)C)C(=O)N(C)[C@@H](C(C)C)C(=O)N1C)OCC
EC50 (Human coronavirus NL63; viral replication, inhibitor, qPCR; Caco-2; 48 h): 1.6 µM

Nc1ncnc2c1c(Br)cn2[C@@H]1O[C@H](CO)[C@@H](O)[C@H]1O
EC50 (Trypanosoma congolense; parasite growth, resazurin; 6C3 diminazene-resistant; 48 h plus 24 h resazurin): 0.52 ± 0.03 µM

O=C1/C(=N\NC(=S)NN=Cc2cccs2)c2ccccc2N1Cc1ccccc1
EC50 (Sindbis virus; viral cytopathogenicity; Vero): > 20 µM

Nc1ncnc2c1c(Cl)cn2[C@@H]1O[C@H](CO)C[C@H]1O
EC50 (Trypanosoma congolense; parasite growth, resazurin; 6C3 diminazene-resistant; 48 h plus 24 h resazurin): 0.00066 ± 3e-05 µM

COc1ccccc1-c1n[nH]c2nc(N[C@H]3CC[C@H](NS(=O)(=O)CC(C)C)CC3)ncc12
EC50 (Leishmania donovani; LdBOB CRK12 overexpressing, promastigotes): 0.00024 ± 2e-06 µM

OC[C@H]1O[C@@H]([Se][Se][C@@H]2O[C@H](CO)[C@@H](O)[C@H](O)[C@H]2O)[C@H](O)[C@@H](O)[C@@H]1O
EC50 (Trypanosoma brucei; parasite growth, flow cytometry; 24 h, blood stage): ~5 µM

O=C(Cc1csc2nc(-c3ccc(Br)cc3)cn12)NN=C1CCCC1
EC50 (Feline coronavirus; virus-induced cytopathicity, microscopy; CRFK): > 100 µg/mL

CCCCCCCCCC(=O)OCC1OC(n2cc(C)c(=O)[nH]c2=O)CC1N(C)C (stereo not drawn)
EC50 (HIV-2; viral cytopathic effect, MTT; MT-4, ROD): > 0.15 µM

Nc1ncnc2c1c(F)cn2[C@@H]1O[C@H](CO)[C@@H](O)[C@H]1O
EC50 (Trypanosoma brucei brucei; parasite growth, resazurin; Squib 427; 72 h): 0.035 ± 0.001 µM

Cc1cc(O)c(=O)c(O)c(O)c1C(=O)c1ccc(-c2ccccc2)cc1
EC50 (herpes simplex virus 2; viral replication): ~0.05 µM

Nc1ncnc2c1c(F)cn2[C@@H]1O[C@H](CO)C[C@H]1O
EC50 (Trypanosoma congolense; parasite growth, resazurin; 6C3 diminazene-resistant; 48 h plus 24 h resazurin): 0.0031 ± 0.0003 µM

COc1cccc(CNC(=O)c2cc(C(C)(C)C)nn2C)c1OC
EC50 (human rhinovirus; viral replication; H1-HeLa, HRV-16): < 1 µM

Repeated from above:
O=C(Cc1csc2nc(-c3ccc(Br)cc3)cn12)NN=C1CCCC1
EC50 (Feline coronavirus; virus-induced cytopathicity, microscopy; CRFK): > 100 µg/mL

CCCCCCCCCC(=O)OCC1OC(n2cc(C)c(=O)[nH]c2=O)CC1N(C)C (stereo not drawn)
EC50 (HIV-2; viral cytopathic effect, MTT; MT-4, ROD): > 0.15 µM

Nc1ncnc2c1c(F)cn2[C@@H]1O[C@H](CO)[C@@H](O)[C@H]1O
EC50 (Trypanosoma brucei brucei; parasite growth, resazurin; Squib 427; 72 h): 0.035 ± 0.001 µM
